Results gathered from unrelated publications.
Each numbered part is a random draw from the data of one study; scales do not carry over between parts. Changes are numbered by the printed parent chain.

Sample 1 — target: CCNA2, cyclin fold, Cln2 fusion (human); technique: yeast growth competition, sequencing; medium: yeast; notes: strong parent motif; relative to: not given; reading: higher = stronger binding
Parent: viral docking peptide; TSVRRALFTGGSD; partner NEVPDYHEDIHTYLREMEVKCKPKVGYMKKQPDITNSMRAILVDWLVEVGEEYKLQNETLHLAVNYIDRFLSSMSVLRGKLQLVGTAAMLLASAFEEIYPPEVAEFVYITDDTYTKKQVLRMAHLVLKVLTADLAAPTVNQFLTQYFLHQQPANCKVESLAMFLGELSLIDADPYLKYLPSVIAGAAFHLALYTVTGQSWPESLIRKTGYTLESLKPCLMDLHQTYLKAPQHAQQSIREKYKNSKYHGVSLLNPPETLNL
`TSVRRATFTGGSD [L7T]`: “normalised enrichment score” 0.375.
Under “normalised enrichment score”, `TSVRRTLFTGGSD [A6T]` is recorded as 5.1.
Under “normalised enrichment score”, `TSVRRALFTGMSD [G11M]` is recorded as 6.14.
`TSVRRALCTGGSD [F8C]`: “normalised enrichment score” 0.348.
`TSVRRALFTEGSD [G10E]` — result for “normalised enrichment score”: 6.51.
`TSVRRALFTGGWD [S12W]` — result for “normalised enrichment score”: 5.89.
For `TSVRKALLTGGSD [R5K F8L]`, “normalised enrichment score” read 0.459.
Under “normalised enrichment score”, `TCVRRALFTGGSD [S2C]` is recorded as 6.3.
For `TSVRRVLFTGGSD [A6V]`, “normalised enrichment score” read 5.44.
`TSVRRALKTGGSD [F8K]` — result for “normalised enrichment score”: 0.107.
For `TSVRRAAFTGGSD [L7A]`, “normalised enrichment score” read 0.187.
Under “normalised enrichment score”, `TSVRCALFTGGSD [R5C]` is recorded as 2.36.
`TSVRRMLFTGGSD [A6M]` — result for “normalised enrichment score”: 4.49.
Under “normalised enrichment score”, `TSVRRASFTGGSD [L7S]` is recorded as -0.49.
`TSVRRALFTHGSD [G10H]`: “normalised enrichment score” 5.98.
`TSVREALFTGGSD [R5E]`: “normalised enrichment score” -0.195.
`TAVRRALFTGGSD [S2A]`: “normalised enrichment score” 5.73.

Sample 2 — target: vanadate, free oxyanion; technique: microfluidic competitive inhibition; medium: in vitro, cell-free expressed; tested at: not given; reading: lower = stronger binding
Notes: derived from inhibition constants, unchanged parent 676 nM
Parent: PafA, mature enzyme, eGFP fusion (Elizabethkingia meningoseptica, UniProt Q9KJX5); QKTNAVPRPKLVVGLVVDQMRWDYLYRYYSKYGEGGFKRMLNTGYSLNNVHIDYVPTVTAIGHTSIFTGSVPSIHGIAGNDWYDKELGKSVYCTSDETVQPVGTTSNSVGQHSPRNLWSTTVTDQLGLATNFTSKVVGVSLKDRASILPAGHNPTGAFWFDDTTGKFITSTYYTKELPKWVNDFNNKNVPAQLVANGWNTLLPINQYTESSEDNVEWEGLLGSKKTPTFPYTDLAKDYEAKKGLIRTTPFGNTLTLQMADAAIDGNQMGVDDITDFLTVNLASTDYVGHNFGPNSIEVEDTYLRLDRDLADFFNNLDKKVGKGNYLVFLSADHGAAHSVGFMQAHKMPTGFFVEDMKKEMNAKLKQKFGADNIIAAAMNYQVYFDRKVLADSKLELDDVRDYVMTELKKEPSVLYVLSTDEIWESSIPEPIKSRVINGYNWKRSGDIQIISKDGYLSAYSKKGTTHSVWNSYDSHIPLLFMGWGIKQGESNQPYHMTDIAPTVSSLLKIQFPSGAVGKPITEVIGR
For `V194A`, “oxyanion analog dissociation constant” read 607 nM.
`K442G` — result for “oxyanion analog dissociation constant”: 935 nM.
Under “oxyanion analog dissociation constant”, `T163V` is recorded as 539 nM.
`N280G` — result for “oxyanion analog dissociation constant”: 1340 nM.
`A377V` — result for “oxyanion analog dissociation constant”: 593 nM.
`T164V`: “oxyanion analog dissociation constant” 818 nM.

Sample 3 — observed: binding; technique: phage display NGS; molecule type: peptide; tested at: concentration not given; relative to: input library
Target: UDP-N-acetylglucosamine--peptide N-acetylglucosaminyltransferase 110 kDa subunit (OGT, Homo sapiens, UniProt O15294)
UniProt O15294, sequence (whole entry, looked up): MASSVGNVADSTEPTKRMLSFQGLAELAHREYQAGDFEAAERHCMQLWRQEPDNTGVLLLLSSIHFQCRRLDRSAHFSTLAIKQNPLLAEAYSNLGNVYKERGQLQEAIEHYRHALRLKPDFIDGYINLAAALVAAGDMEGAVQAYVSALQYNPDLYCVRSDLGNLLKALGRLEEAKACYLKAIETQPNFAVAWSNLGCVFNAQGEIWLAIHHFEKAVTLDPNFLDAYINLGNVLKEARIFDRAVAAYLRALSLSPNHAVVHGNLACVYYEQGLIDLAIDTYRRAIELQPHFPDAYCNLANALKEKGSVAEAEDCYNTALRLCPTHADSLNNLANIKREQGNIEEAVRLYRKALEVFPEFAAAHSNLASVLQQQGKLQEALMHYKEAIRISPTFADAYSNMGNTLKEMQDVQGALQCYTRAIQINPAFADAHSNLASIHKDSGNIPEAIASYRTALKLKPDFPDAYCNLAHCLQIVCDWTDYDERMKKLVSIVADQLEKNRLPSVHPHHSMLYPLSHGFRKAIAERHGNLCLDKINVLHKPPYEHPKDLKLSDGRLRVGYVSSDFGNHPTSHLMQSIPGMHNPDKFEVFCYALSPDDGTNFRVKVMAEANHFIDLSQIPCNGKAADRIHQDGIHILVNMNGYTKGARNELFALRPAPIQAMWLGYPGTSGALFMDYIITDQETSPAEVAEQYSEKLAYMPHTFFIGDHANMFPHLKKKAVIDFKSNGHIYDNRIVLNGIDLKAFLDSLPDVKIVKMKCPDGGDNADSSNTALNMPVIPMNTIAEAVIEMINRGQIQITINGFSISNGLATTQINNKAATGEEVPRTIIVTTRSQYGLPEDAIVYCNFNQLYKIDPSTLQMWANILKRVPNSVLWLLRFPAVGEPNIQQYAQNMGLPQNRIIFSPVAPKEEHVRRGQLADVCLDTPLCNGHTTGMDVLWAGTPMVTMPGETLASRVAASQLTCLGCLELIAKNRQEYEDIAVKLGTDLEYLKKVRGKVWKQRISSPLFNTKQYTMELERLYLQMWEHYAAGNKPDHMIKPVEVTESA
For `QDTTFAPFYQIIAPP`, “enrichment fold change” read 3.09.
For `HVQNGHTHKIHAHEV`, “enrichment fold change” read 4.23.
Under “enrichment fold change”, `HGRDTYMEKGHYHF` is recorded as 3.81.
`NVAQTHMHHHLLHEV`: “enrichment fold change” 9.1.
`SINYKLQPKYQIFFP`: “enrichment fold change” 2.45.
`NEQQIFPPIYIIQHP`: “enrichment fold change” 3.31.
`NLYRPQYQINFFDTI`: “enrichment fold change” 2.79.

Sample 4 — technique: protein binding microarray; molecule type: double-stranded DNA, one strand shown; medium: in vitro; tested at: not given; relative to: not given; reading: higher = stronger binding
Target: Histone acetyltransferase KAT6A, winged helix 2, GST fusion (KAT6A, Homo sapiens, UniProt Q92794, residues 85-181)
Notes: 8-mer, flanks averaged, mean of 2 arrays, mostly near background
Target sequence (chain): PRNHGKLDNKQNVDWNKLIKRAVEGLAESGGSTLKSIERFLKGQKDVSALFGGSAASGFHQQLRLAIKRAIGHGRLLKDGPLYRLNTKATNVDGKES
For `CTGGCGTA`, the E-score was 0.192.
`CGGCTTCC` gave an E-score of 0.228.
`AGGTGCCA` gave an E-score of -0.0698.
`CTGACCAC` has an E-score of -0.157.
For `GCGTCACA`, the E-score was -0.00561.
`AAAAGACT` gave an E-score of -0.286.
`ACGAAAGC` gave an E-score of -0.0282.
`ACGAAAGA` has an E-score of 0.00364.

For quick reference, copied from above (sample 1):
`TSVRRALKTGGSD [F8K]` — result for “normalised enrichment score”: 0.107.
For `TSVRRAAFTGGSD [L7A]`, “normalised enrichment score” read 0.187.
Under “normalised enrichment score”, `TSVRCALFTGGSD [R5C]` is recorded as 2.36.
`TSVRRMLFTGGSD [A6M]` — result for “normalised enrichment score”: 4.49.
Under “normalised enrichment score”, `TSVRRASFTGGSD [L7S]` is recorded as -0.49.
